Assay results of several laboratories.
Parts stem from different laboratories: compare values within a part only.

Block 1
Target: Prothrombin, mature alpha-thrombin (F2, Homo sapiens, UniProt P00734)
Method: aptamer microarray, sandwich
Form: DNA with 2'F-ANA
Matrix: in vitro
Tested at: 200 nM
Setting: whole 15-mer aptamer, many near background
With: Cy3 exosite-II aptamer, 400 nM
Direction: higher = stronger binding
Strand: GGTTGGTGTGGTTGG
`2'F-ANA at 5 7 8 11 12 13 14 15` — result for “mean fluorescence intensity”: 67.5 a.u.
Under “mean fluorescence intensity”, `2'F-ANA at 1 2 3 5 7 8 9 10 13 15` is recorded as 48.4 a.u.
For `2'F-ANA at 3 5 7 9 10 12 13`, “mean fluorescence intensity” read 61.3 a.u.
Under “mean fluorescence intensity”, `2'F-ANA at 1 4 9 10 11 15` is recorded as 50.4 a.u.
Under “mean fluorescence intensity”, `2'F-ANA at 1 4 5 8 13` is recorded as 48.5 a.u.
For `2'F-ANA at 4 6 8 9 11 13 14 15`, “mean fluorescence intensity” read 78.7 a.u.
`2'F-ANA at 1 5 7 10 12 15`: “mean fluorescence intensity” 68.3 a.u.
`2'F-ANA at 1 2 3 4 5 7 8 10 14` — result for “mean fluorescence intensity”: 46.2 a.u.
Under “mean fluorescence intensity”, `2'F-ANA at 2 3 4 6 8 9 14` is recorded as 255 a.u.
For `2'F-ANA at 1 2 5 7 10 11 12 13 15`, “mean fluorescence intensity” read 58 a.u.
Under “mean fluorescence intensity”, `2'F-ANA at 3 4 7 8 9 10 11` is recorded as 306 a.u.
For `2'F-ANA at 3 4 5 6 7 9 11 12 14 15`, “mean fluorescence intensity” read 98.3 a.u.
`2'F-ANA at 1 4 6 7 8 9`: “mean fluorescence intensity” 140 a.u.
`2'F-ANA at 1 4 5 7 9 10 14` — result for “mean fluorescence intensity”: 47.5 a.u.
`2'F-ANA at 1 2 5 8 15` — result for “mean fluorescence intensity”: 67.3 a.u.
For `2'F-ANA at 3 5 6 7 9 10 12 13 15`, “mean fluorescence intensity” read 58 a.u.
For `2'F-ANA at 1 3 4 5 6 8 12 13`, “mean fluorescence intensity” read 140 a.u.
For `2'F-ANA at 1 3 4 8 9 11 13 15`, “mean fluorescence intensity” read 149 a.u.
For `2'F-ANA at 2 3 4 6 7 8 14`, “mean fluorescence intensity” read 287 a.u.
For `2'F-ANA at 1 2 3 4 6 8 12 14`, “mean fluorescence intensity” read 75.7 a.u.
For `2'F-ANA at 1 3 5 6 7 9 10 11 13 14 15`, “mean fluorescence intensity” read 51.9 a.u.
For `2'F-ANA at 7 8 12 14 15`, “mean fluorescence intensity” read 250 a.u.

Block 2
Target: Interferon regulatory factor 7, full length, phosphomimetic (IRF7, Homo sapiens, UniProt Q92985, residues 1-503, S471D/S472D/S475D/S476D/S477D/S483D/S484D/S487D)
UniProt Q92985, sequence (whole entry, unmodified, looked up): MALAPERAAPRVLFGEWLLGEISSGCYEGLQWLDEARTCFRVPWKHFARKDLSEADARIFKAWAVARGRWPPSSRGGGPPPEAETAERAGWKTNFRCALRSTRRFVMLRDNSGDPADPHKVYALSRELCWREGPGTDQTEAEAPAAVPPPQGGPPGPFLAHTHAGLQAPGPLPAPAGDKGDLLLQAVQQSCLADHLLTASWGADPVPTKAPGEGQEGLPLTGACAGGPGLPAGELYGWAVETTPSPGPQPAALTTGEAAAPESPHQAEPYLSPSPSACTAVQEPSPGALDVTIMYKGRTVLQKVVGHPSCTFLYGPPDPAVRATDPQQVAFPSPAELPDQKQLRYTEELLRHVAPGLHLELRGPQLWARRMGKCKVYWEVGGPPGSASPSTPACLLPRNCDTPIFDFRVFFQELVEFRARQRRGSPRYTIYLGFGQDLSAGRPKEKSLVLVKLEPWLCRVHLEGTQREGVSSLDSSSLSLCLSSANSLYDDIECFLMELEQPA
Method: protein-binding microarray
Form: double-stranded DNA, one strand shown
Matrix: in vitro
Tested at: 2200 nM top
Setting: 60-bp whole probe
With: salmon DNA 0.4 mg/ml
Baseline: random background probes
Direction: higher = stronger binding
Constant ends, left off below: GCCTAGCAC … GTCTTGATTCGCTTGACGCTGCTG
For `TCAAGAATCCCCTTCTAACTGTGCTAG`, “fitted relative affinity” read 0.272 z-score.
Under “fitted relative affinity”, `GACGAACTGAGTATCGTGACGTGCTAG` is recorded as -0.0511 z-score.
Under “fitted relative affinity”, `ATAGATATCAGACTGGATTAGTGCTAG` is recorded as -0.0736 z-score.
For `GACGATATCAGTTGCGAGACGTGCTAG`, “fitted relative affinity” read 0.381 z-score.
`TATTACCTCATCTTCCTCTGCGTGCTA` — result for “fitted relative affinity”: 1.73 z-score.
Under “fitted relative affinity”, `TCCATTTTTACCCTCCTTACGTGCTAG` is recorded as 3.21 z-score.
`GACGATTTCAGATCCGAGACGTGCTAG` — result for “fitted relative affinity”: 0.852 z-score.
`TCAATCCTTCATTTGAAACTGTGCTAG` — result for “fitted relative affinity”: 0.855 z-score.
Under “fitted relative affinity”, `GCCGATCTCAGACTGGAGACGTGCTAG` is recorded as 0.17 z-score.
Under “fitted relative affinity”, `GACGGTCTACTACTGCTGACGTGCTAG` is recorded as 0.337 z-score.
`GACCGTTTCGGTTCCGGGACGTGCTAG` — result for “fitted relative affinity”: 8.35 z-score.
For `TTAGCTATCGGTCTCGGTTAGTGCTAG`, “fitted relative affinity” read 0.827 z-score.
For `TCAGGACTGCTACTGCTTTAGTGCTAG`, “fitted relative affinity” read 0.127 z-score.
For `TTAGGACTGCTACTGCTCTAGTGCTAG`, “fitted relative affinity” read -0.182 z-score.
`TTAGATATCGGGACTGGATTCGTGCTA` — result for “fitted relative affinity”: -0.0845 z-score.
For `GACGGTTCCGGTTCCGGGACGTGCTAG`, “fitted relative affinity” read 2.18 z-score.
For `TCAGATTTCCACTTTCTACTGTGCTAG`, “fitted relative affinity” read 3.34 z-score.
For `TCAGTTTTTACTTTCTGACTGTGCTAG`, “fitted relative affinity” read 3.71 z-score.
For `GACGATATGAGACTGGAGACGTGCTAG`, “fitted relative affinity” read 0.0128 z-score.
`GACGGTCTCCTCATCCTGACGTGCTAG` — result for “fitted relative affinity”: 0.654 z-score.
`CACACCCGGCTCCTCTGCCAGTGCTAG`: “fitted relative affinity” 0.0268 z-score.
`ATAACACTCTTCTTTTGCTAAGTGCTA`: “fitted relative affinity” 0.964 z-score.
For `TTAGAACTGGAGTTTCGATTAGTGCTA`, “fitted relative affinity” read 2.98 z-score.
Under “fitted relative affinity”, `TTAGGTCTCGGTTTCCGTTAGTGCTAG` is recorded as 3.63 z-score.

Block 3
Target: Histone acetyltransferase KAT6A, winged helix 1, GST fusion (KAT6A, Homo sapiens, UniProt Q92794, residues 1-85)
Method: protein binding microarray
Form: double-stranded DNA, one strand shown
Matrix: in vitro
Tested at: not given
Setting: 8-mer, flanks averaged, mean of 2 arrays, mostly near background
Baseline: not given
Direction: higher = stronger binding
Target sequence (chain): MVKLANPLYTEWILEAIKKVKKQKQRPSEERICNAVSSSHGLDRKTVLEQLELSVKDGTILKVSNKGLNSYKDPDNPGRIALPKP
`GATATAAA` has an E-score of -0.291.
The E-score of `CAGTTTAA` is reported as -0.0946.
The E-score of `CCGGGATA` is reported as 0.178.
`AGAATTAA` has an E-score of -0.201.
The E-score of `GCCATCAC` is reported as 0.0938.
For `GTAATGGA`, the E-score was -0.0958.
`AATTCGTA` has an E-score of -0.0997.
`CTGGTAAA` has an E-score of -0.129.
`TAACGGAA` has an E-score of 0.244.
With `AAAGTCCA` the E-score was -0.216.
`CCGGCGGC` gave an E-score of 0.484.
`CCACCAGA` has an E-score of -0.25.
For `CCTTCAAG`, the E-score was -0.0677.
`AGGGCTGG` gave an E-score of -0.166.
`GAGTAGTA` has an E-score of 0.00557.
With `ACTACCAA` the E-score was -0.149.

Block 4
Target: Fragile X messenger ribonucleoprotein 1, C-terminal low-complexity region (Fmr1, Mus musculus, UniProt P35922)
Method: RNA Bind-n-Seq
Form: RNA
Matrix: in vitro
Tested at: 200 nM
Setting: whole 134-nt RNA, ends assumed
With: 150 mM LiCl
Baseline: input library
Direction: higher = stronger binding
Library: 7-deaza-guanosine replaces G
Constant ends, left off below: GGGAGUUCUACAGUCCGACGAUC … UGGAAUUCUCGGGUGUCAAGG
For `GCAGGAAGUAAAAACAAAUGGAAAUGCUUGGGAUAGUGGCAGGGGUGGGGGUUGCUAAGGAAAGGGUGGGAUGGGAGUGGGUAAAGAGUU`, the log2 enrichment was 1.59.
`AGUCCUGUGCUACACAUCGUAUGUACCGAAUCGGGGUGGGGAGGGGUUUUUUUGGGGAAAGUAUUAUGUUACGCCGUUCGGAUCUGCACU` gave a log2 enrichment of -0.153.
`AGUCCUGUGCUACACAUCGUAUGUACCGAAUCGGAAAAAGGGGAAAAAGGAAAAAGGAAAGUAUUAUGUUACGCCGUUCGGAUCUGCACU` has a log2 enrichment of -1.53.
`UGGCCCUGGUGGCAUGCGGGGAGGAAGAGGUGCCCUCAUGGAUCGUGGUGGUCCCGGUGGAAUGUUCAGAGGUGGCCGUGGUGGAGACAG` gave a log2 enrichment of 1.02.
The log2 enrichment of `CUGUGCUACACAUCGUAUGUACCGAAUCGGGGUUUGGGGAAAAAAAGGGGAAAAAAAGGGGAAAGUAUUAUGUUACGCCGUUCGGAUCUG` is reported as 1.05.
With `AGUCCUGUGCUACACAUCGUAUGUACCGAAUCGGGGUGGGGUUUUUUUGGGGUGGGGAAAGUAUUAUGUUACGCCGUUCGGAUCUGCACU` the log2 enrichment was 0.0755.
With `AAUGUGUCCUCCCUGUCCAAAUUGGGAAUGACUUAAUGUCAAUUUGUUUGUUGGUUGUUUUAAUAAUACUUCCUUAUGUAGCCAUUAAGA` the log2 enrichment was -0.018.
With `UUUUAGGAAGCUGCAGUAAAGGAAGAUGAAGAAGAAGUUUCAGAUAAGGGCAGUGAUUCUGAAGAAGAAGAAACCAAUAGAGAUUCCCAA` the log2 enrichment was -2.79.
`GUCCUGUGCUACACAUCGUAUGUACCGAAUCGGGGCCCCCGGGCCCCCGGGGCCCCCGGAAAGUAUUAUGUUACGCCGUUCGGAUCUGCA` has a log2 enrichment of -2.43.
`UGGCCCUGGUGGCAUGCGGGGAGGAAGAGGUGGCCUCAUGGAUCGCGGUGGUCCCGGUGGAAUGUUCAGAGGUGGCCGUGGUGGAGACAG` has a log2 enrichment of -0.262.
`GCAGGAAGUAAACACAAAUGGAAAUGCUUCGGAUAGUGGCAGGGGUGGGGGUUGCUAAGGAAAGGGUGGGAUGGGAGUGGGUAAAGAGUU` has a log2 enrichment of 1.56.

Block 5
Target: Sal-like protein 4, full length isoform A (SALL4, Homo sapiens, UniProt Q9UJQ4, residues 1-1053)
UniProt Q9UJQ4, sequence (whole entry, looked up): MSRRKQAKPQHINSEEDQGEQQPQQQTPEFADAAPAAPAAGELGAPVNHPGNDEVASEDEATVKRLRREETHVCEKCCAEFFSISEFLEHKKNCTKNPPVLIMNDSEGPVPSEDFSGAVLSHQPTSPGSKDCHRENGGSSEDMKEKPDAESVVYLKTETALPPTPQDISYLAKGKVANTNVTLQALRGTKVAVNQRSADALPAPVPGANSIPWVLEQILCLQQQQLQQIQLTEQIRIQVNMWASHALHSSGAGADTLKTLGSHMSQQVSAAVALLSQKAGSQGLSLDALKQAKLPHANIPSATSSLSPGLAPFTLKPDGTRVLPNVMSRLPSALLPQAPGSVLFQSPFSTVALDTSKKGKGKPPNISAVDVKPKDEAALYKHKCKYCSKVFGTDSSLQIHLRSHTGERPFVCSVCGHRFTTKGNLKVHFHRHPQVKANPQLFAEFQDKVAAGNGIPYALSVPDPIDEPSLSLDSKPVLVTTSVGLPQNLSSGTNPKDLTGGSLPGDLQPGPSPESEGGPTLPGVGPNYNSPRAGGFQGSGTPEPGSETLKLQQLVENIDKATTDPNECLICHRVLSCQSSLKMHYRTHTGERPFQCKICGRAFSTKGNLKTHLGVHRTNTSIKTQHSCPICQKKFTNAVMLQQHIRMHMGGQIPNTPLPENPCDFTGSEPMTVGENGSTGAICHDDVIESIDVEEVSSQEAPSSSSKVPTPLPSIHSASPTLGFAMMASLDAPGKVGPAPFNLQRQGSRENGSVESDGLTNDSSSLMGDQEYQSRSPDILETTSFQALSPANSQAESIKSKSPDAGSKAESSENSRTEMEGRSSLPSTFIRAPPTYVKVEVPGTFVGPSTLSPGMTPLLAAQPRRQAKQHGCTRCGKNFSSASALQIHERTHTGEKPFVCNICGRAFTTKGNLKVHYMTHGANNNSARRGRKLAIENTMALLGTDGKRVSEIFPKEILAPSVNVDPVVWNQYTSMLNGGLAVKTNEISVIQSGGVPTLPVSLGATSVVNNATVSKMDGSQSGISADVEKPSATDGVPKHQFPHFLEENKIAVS
Method: universal PBM
Form: double-stranded DNA, one strand shown
Matrix: in vitro
Tested at: 600 nM
Setting: 8-mer, flanks averaged, mean of replicates
Direction: higher = stronger binding
The E-score of `AGAACGGA` is reported as -0.0233.
With `CCAATGGC` the E-score was -0.184.
`GATCTCAA` has an E-score of 0.0578.
The E-score of `CGGATGGA` is reported as 0.0521.
The E-score of `CCAGCGAG` is reported as -0.259.
`GCAACCGA` gave an E-score of -0.145.
`GCAATCGA` gave an E-score of -0.0795.
The E-score of `AGCTAGAG` is reported as -0.0431.
With `CGGCGTAA` the E-score was -0.0122.
`ACGGATTA` has an E-score of 0.187.
The E-score of `ACGTTAGT` is reported as 0.176.
With `AACTGCTG` the E-score was -0.134.
The E-score of `CGGATCCC` is reported as -0.362.
The E-score of `GGATAAAC` is reported as 0.199.
The E-score of `CCTCTAAG` is reported as -0.0396.
For `CAGATTGA`, the E-score was -0.0816.
The E-score of `AGCTCTCC` is reported as -0.166.
`AAGGAATA` has an E-score of 0.211.
`GTTAAGCA` has an E-score of 0.0211.
With `GGTACAAA` the E-score was 0.155.
The E-score of `GAATCTAC` is reported as 0.0605.
`CGCATAAC` gave an E-score of 0.26.
`GCTTGGTA` has an E-score of -0.0837.
For `CACGATCA`, the E-score was 0.0878.
`AAGCCTGG` gave an E-score of -0.256.
